Experimental data from different studies.
Numbers after ± are the reported error.
Sequence of UniProt P46109 (whole entry, looked up): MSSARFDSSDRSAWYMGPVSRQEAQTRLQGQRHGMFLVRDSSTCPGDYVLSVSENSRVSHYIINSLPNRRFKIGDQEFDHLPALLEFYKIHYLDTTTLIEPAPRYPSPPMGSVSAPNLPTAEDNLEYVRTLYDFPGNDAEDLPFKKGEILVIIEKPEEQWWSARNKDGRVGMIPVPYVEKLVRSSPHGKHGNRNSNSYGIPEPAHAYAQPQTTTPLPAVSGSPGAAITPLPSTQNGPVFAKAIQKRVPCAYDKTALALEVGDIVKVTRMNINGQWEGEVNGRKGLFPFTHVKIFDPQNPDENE

SMILES	target or system	test	test system	conditions	how to read	quantity	value
O=[N+]([O-])c1ccc(N2CCC(NCCC(O)c3ccc(F)c4ccccc34)CC2)c(C(F)(F)F)c1 (stereo not shown)	Salmonella typhimurium	SOS/umu test	TA1535/pSK1002, TGA medium	7.63e-06 mg/mL, 4 h, without S9	–	survival	105%
CCOC(=O)C1=C(CN2CCC(C(=O)Nc3ccccc3B3OC(C)(C)C(C)(C)O3)C2)NC(c2nccs2)=NC1c1ccc(F)cc1Br (stereo not shown)	hepatitis B virus	–	HepDES19	–	reference: CC50 over EC50	selectivity index	> 16
[Cl-].[Cl-].[Pt+2].[Ru+2].c1ccc(-c2nccnc2-c2ccccn2)nc1.c1cnc2c(c1)ccc1cccnc12.c1cnc2c(c1)ccc1cccnc12	Danio rerio	–	embryos	60 µM, 48 h	–	hatching rate	6.67 ± 3.5%
Cc1cc(C(=O)NC(C)(C)COc2cccc3c2C(N)=NS(=O)(=O)N3)cc(C)n1	Escherichia coli	Ames test, confirmatory	WP2 uvrA	5000 µg/plate, with: rat liver S9	reference: solvent control	revertant ratio	1
COc1cccc(-c2ccccc2NC(=O)C2CCN(Cc3ccccc3F)CC2)c1	Vero-E6	CellTiter-Glo ATP	–	concentration not given, 72 h, retest 8-point duplicates	reference: DMSO 0%, hyamine -100%, more negative, more toxic	cytotoxicity efficacy	0%
[Cl-].[Cl-].[Pt+2].[Ru+2].c1ccc(-c2nc3ccccc3nc2-c2ccccn2)nc1.c1cnc2c(c1)ccc1cccnc12.c1cnc2c(c1)ccc1cccnc12	Danio rerio	–	embryos	15 µM, 24 h	–	survival rate	90 ± 2.1%
CCOC(=O)C1=C(CN2CCC[C@@H]2C(=O)Nc2ccc(B(O)O)cc2)NC(c2nccs2)=N[C@H]1c1ccc(F)cc1Br	hepatitis B virus	–	HePAD38	–	reference: CC50 over EC50	selectivity index	26500
CO[C@H]1C[C@@H]2CC[C@@H](C)[C@@](O)(O2)C(=O)C(=O)N2CCCC[C@H]2C(=O)O[C@H]([C@H](C)C[C@@H]2CC[C@@H](OC(=O)NCCOCCOCCOCCOCCOCCOCCOCCOCCC(=O)N3CCc4cc(Cn5nc(-c6ccc7oc(N)nc7c6)c6c(N)ncnc65)ccc4C3)[C@H](OC)C2)C[C@@H](O)[C@H](C)/C=C(\C)[C@@H](O)[C@@H](OC)C(=O)[C@H](C)C[C@H](C)/C=C/C=C/C=C/1C	–	–	patients with advanced solid tumours	intravenous, 1.6 mg/3 mg weekly, grade ≥3	–	Mucositis AE leading to dose reduction	0%
CC(=O)N1CCC(C(=O)N2CCN3C(=O)c4cc(-c5ccccc5)ccc4NC(=O)C3C2)CC1 (stereo not shown)	Escherichia coli	–	WP2 uvrA	5.0 µg/plate, with rat liver S9	–	revertants per plate	41
CN(C)CCNC(=O)c1ccc2c(c1)C1(CCN(CC3CC3)C1)CN2Cc1ccccc1 (stereo not shown)	Vero-E6	CellTiter-Glo ATP	–	concentration not given, 72 h, retest 8-point duplicates	reference: DMSO 0%, hyamine -100%, more negative, more toxic	cytotoxicity efficacy	0%
CCOC(=O)C1=C(CN2CCC(C(=O)Nc3cccc(B4OC(C)(C)C(C)(C)O4)c3)C2)NC(c2nccs2)=NC1c1ccc(F)cc1Br (stereo not shown)	hepatitis B virus	–	HepDES19	–	reference: CC50 over EC50	selectivity index	38
C[C@H]1CN(c2n[nH]c3nc(N[C@H]4CC[C@H](NS(=O)(=O)CCC(F)(F)F)CC4)ncc23)CCO1	Crk-like protein (Homo sapiens, UniProt P46109)	competitor, Kinobeads competition	human cell extract	0.032 µM	reference: vehicle	relative abundance	1.04
Fc1ccc(C2=CCNCC2)cc1	Salmonella typhimurium	SOS/umu test	TA1535/pSK1002	0.063 mg/mL, 4 h, with S9, full range	–	survival	84.7%
CCOC(=O)C1=C(CN2CCC[C@@H]2C(=O)Nc2cccc(B(O)O)c2)NC(c2nccs2)=N[C@@H]1c1ccc(F)cc1Br	hepatitis B virus	–	HepDES19	–	reference: CC50 over EC50	selectivity index	16
COc1cccc(-c2n[nH]c(SCc3ccccn3)n2)c1OC	Salmonella typhimurium	Ames test, plate incorporation	TA98	0.063 mg/plate, without S9	–	revertant colonies per plate	20
[Cl-].[Cl-].[Pt+2].[Ru+2].c1ccc(-c2nc3cc4ccccc4cc3nc2-c2ccccn2)nc1.c1cnc2c(c1)ccc1cccnc12.c1cnc2c(c1)ccc1cccnc12	Danio rerio	–	embryos	45 µM, 0 h	–	survival rate	100%

For quick reference, copied from above:
SMILES	target or system	test	test system	conditions	how to read	quantity	value
O=[N+]([O-])c1ccc(N2CCC(NCCC(O)c3ccc(F)c4ccccc34)CC2)c(C(F)(F)F)c1 (stereo not shown)	Salmonella typhimurium	SOS/umu test	TA1535/pSK1002, TGA medium	7.63e-06 mg/mL, 4 h, without S9	–	survival	105%
